Measurements pooled from the literature.
A part holds a random share of what one study measured. Several values in a cell are separate wells, animals, samples, runs or records.
Sequence of UniProt O14936 (whole entry, looked up): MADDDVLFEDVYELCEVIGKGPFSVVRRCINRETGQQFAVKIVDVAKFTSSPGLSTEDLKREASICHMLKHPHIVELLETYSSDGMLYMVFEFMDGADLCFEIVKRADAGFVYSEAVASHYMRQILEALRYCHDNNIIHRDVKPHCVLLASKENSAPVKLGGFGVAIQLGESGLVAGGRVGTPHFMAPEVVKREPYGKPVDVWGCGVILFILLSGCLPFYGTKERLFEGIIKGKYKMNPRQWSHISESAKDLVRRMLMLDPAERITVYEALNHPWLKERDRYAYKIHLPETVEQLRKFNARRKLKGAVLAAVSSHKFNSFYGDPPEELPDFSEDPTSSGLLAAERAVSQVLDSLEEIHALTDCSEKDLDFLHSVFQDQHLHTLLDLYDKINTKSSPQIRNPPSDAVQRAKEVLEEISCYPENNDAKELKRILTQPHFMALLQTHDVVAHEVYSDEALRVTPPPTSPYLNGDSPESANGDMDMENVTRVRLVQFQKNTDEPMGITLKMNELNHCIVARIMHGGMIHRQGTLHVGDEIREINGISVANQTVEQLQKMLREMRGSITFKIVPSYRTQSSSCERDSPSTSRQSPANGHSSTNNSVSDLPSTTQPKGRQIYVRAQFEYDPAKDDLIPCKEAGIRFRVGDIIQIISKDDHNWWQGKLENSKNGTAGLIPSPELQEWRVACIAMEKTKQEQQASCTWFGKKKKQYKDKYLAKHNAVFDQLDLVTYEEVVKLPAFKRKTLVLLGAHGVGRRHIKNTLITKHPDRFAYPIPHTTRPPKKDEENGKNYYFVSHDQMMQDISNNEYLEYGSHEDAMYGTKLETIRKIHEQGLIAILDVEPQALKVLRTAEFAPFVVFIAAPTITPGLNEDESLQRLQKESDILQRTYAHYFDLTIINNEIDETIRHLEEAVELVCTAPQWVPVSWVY
Sequence of UniProt O96013 (whole entry, looked up): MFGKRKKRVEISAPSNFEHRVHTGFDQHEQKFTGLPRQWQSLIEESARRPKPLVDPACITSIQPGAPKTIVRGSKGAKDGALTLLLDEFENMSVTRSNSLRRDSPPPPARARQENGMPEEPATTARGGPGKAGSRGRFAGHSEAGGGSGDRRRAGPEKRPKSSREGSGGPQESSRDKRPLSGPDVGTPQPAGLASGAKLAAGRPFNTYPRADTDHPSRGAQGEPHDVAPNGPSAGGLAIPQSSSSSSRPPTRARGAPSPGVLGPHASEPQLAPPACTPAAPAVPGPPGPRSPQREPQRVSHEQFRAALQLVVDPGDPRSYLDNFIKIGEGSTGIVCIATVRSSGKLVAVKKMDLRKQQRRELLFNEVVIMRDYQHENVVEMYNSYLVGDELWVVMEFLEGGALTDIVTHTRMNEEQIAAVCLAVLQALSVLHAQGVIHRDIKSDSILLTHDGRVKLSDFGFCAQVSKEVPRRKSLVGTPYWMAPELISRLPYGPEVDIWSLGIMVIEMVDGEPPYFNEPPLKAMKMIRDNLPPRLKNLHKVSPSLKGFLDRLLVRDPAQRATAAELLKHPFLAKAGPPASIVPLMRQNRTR
Sequence of UniProt Q9Y2H9 (whole entry, looked up): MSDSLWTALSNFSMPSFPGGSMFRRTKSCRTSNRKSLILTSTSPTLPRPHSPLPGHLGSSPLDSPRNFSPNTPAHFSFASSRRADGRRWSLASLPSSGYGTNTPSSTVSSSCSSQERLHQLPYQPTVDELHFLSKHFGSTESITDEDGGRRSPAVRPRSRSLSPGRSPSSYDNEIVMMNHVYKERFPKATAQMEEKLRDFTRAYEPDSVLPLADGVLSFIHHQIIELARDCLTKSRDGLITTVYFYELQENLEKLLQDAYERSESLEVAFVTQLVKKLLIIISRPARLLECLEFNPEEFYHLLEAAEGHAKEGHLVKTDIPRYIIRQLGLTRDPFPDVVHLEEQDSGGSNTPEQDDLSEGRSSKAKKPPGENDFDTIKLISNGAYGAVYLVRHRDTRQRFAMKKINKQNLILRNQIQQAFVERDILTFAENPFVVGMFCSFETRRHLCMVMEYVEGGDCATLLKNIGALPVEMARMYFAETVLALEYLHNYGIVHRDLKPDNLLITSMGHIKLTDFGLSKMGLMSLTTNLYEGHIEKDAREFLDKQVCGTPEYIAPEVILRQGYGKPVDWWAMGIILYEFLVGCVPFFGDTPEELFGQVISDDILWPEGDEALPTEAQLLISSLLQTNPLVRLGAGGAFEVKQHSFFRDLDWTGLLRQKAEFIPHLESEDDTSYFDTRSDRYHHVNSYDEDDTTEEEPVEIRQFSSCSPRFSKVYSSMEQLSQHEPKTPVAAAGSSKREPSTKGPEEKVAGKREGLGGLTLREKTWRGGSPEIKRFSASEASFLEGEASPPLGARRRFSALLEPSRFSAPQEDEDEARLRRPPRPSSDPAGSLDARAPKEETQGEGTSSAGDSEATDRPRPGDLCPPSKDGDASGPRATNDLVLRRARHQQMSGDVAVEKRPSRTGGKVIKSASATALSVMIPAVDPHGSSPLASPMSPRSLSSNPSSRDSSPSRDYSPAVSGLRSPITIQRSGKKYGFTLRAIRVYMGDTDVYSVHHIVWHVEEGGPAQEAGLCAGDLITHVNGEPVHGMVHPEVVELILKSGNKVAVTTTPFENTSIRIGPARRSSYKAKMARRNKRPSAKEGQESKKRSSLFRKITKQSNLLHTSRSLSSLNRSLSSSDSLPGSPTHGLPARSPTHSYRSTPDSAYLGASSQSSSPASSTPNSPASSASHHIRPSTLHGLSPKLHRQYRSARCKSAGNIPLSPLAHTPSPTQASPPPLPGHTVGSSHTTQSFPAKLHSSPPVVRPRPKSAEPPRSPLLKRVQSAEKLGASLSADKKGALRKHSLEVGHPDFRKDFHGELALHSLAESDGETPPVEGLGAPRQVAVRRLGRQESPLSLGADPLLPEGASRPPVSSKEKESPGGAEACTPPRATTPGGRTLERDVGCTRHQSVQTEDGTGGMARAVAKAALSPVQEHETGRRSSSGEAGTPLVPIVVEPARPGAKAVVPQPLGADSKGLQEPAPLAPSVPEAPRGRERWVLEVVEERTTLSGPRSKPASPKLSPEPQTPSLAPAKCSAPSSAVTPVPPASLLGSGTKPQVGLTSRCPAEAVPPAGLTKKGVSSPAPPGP

Set 1 — method: SPR; concentration: concentration not given
Target: DDB1- and CUL4-associated factor 1 (DCAF1, Homo sapiens, UniProt Q9Y4B6)
Sequence of UniProt Q9Y4B6 (whole entry, looked up): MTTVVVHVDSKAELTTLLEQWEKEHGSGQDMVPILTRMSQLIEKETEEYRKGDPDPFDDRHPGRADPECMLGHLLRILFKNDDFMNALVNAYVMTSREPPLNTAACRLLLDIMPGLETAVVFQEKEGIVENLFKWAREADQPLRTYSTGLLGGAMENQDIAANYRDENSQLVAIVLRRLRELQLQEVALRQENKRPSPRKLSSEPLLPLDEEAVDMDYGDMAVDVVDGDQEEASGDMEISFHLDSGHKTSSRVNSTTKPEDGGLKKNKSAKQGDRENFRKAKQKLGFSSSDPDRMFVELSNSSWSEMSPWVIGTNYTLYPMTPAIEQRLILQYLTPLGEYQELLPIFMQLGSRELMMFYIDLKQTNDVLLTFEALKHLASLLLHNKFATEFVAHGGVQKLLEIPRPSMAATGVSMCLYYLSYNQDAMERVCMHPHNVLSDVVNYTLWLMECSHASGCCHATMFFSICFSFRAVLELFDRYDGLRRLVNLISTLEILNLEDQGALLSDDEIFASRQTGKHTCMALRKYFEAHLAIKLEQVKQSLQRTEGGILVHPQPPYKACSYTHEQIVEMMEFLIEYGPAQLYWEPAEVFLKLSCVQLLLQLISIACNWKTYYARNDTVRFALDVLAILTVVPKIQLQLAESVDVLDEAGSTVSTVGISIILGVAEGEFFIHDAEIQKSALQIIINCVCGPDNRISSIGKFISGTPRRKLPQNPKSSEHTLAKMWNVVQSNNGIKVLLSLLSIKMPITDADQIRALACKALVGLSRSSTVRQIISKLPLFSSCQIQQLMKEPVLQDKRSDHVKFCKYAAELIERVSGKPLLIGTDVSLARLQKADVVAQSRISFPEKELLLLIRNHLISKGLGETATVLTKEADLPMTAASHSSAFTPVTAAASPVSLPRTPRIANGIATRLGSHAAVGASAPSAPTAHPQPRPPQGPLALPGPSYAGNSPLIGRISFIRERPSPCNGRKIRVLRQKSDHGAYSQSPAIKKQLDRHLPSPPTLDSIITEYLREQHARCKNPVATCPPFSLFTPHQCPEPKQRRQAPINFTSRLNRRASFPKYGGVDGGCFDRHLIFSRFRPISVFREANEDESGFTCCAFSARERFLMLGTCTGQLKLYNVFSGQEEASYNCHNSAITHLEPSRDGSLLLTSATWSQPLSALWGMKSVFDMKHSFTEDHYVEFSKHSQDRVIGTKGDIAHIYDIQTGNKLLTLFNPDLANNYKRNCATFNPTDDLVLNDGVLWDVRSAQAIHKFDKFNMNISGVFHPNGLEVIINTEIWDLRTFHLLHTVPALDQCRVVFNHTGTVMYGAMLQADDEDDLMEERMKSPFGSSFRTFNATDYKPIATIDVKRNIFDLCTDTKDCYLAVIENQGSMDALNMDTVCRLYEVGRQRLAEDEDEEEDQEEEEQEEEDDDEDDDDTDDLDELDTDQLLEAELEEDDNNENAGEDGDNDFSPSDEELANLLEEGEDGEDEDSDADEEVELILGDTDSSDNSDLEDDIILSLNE
SMILES	binding
C[C@@H]1CN(c2ccc(-c3cc(C(=O)NCCOCCOCCOCCOCCOCCOCCNC(=O)/C=C/c4[nH]cc(C(=O)N[C@@H](CC(N)=O)c5ccc(F)c(Cl)c5)c4-c4ccc(Cl)cc4F)ccc3F)cc2NC(=O)c2ccc(F)cc2C(F)(F)F)C[C@H](C)N1C	20.3%
C[C@@H]1CN(c2ccc(-c3cc(C(=O)NCCOCCOCCOCCOCCNC(=O)/C=C/c4[nH]cc(C(=O)N[C@@H](CC(N)=O)c5ccc(F)c(Cl)c5)c4-c4ccc(Cl)cc4F)ccc3F)cc2NC(=O)c2c[nH]c(=O)cc2C(F)(F)F)C[C@H](C)N1C	63.3%
C[C@@H]1CN(c2ccc(-c3cc(C(=O)NCCCNC(=O)/C=C/c4[nH]cc(C(=O)N[C@@H](CC(N)=O)c5ccc(F)c(Cl)c5)c4-c4ccc(Cl)cc4F)ccc3F)cc2NC(=O)c2c[nH]c(=O)cc2C(F)(F)F)C[C@H](C)N1C	73.4%

Set 2 — observed: enzyme activity; action: inhibitor; concentration: 10 µM
Target: Calcium/calmodulin-dependent protein kinase type II subunit alpha (CAMK2A, Homo sapiens, UniProt Q9UQM7)
Sequence of UniProt Q9UQM7 (whole entry, looked up): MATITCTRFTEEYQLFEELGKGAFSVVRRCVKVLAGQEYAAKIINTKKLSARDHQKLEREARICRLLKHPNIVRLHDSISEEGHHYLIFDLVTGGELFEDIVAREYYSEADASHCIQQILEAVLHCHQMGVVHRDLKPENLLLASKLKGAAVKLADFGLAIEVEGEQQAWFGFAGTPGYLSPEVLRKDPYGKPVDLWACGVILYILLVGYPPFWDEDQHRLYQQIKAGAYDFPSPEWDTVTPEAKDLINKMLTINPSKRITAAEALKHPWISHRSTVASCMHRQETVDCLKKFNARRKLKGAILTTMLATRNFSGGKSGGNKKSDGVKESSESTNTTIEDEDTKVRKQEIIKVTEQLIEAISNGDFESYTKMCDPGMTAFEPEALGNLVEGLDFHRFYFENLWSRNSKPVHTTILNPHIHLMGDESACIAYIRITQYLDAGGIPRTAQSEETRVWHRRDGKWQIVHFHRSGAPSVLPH
SMILES	inhibition
Cc1nc2ccccc2o1	-33%
C[C@@H]1O[C@@H](O[C@@H]2[C@@H](O)[C@H](O[C@H]3CC[C@]4(C)[C@H]5CC=C6[C@@H]7CC(C)(C)CC[C@]7(C(=O)O[C@@H]7O[C@H](CO)[C@@H](O)[C@H](O)[C@H]7O)CC[C@@]6(C)[C@]5(C)CC[C@H]4C3(C)C)O[C@H](C(=O)O)[C@H]2O)[C@H](O)[C@H](O)[C@H]1O	-33%
N=C(N)c1ccc(OCCCCCOc2ccc(C(=N)N)cc2)cc1	-6%
OCC1=C[C@@H](O)[C@]2(O[C@@H]3O[C@H](CO)[C@@H](O)[C@H](O)[C@H]3O[C@@H]3O[C@H](CO)[C@@H](O)[C@H](O)[C@H]3O)C=CO[C@@H](O[C@@H]3O[C@H](CO)[C@@H](O)[C@H](O)[C@H]3O)[C@H]12	18%
CCCCCCCCCCC(=O)OC	14%
COC(=O)C1=CO[C@@H](O[C@@H]2O[C@H](CO)[C@@H](O)[C@H](O)[C@H]2O)[C@H]2[C@@H]1C(=O)C[C@@H]2C	-19%
O=c1cc(-c2ccc(O)cc2)oc2c([C@@H]3O[C@H](CO)[C@@H](O)[C@H](O)[C@H]3O)c(O)c([C@@H]3OC[C@@H](O)[C@H](O)[C@H]3O)c(O)c12	-2%
O=C1N[C@@H](Cc2cnc[nH]2)C(=O)N2CCC[C@@H]12	-21%
O=C(/C=C/c1ccc(O)c(O)c1)O[C@@H]1C[C@@](OC(=O)/C=C/c2ccc(O)c(O)c2)(C(=O)O)C[C@@H](O)[C@@H]1O	-12%
OC[C@H]1O[C@@](CO)(O[C@H]2O[C@H](CO)[C@@H](O)[C@H](O)[C@H]2O)[C@@H](O[C@H]2O[C@H](CO)[C@@H](O)[C@H](O)[C@H]2O)[C@@H]1O	-10%
COc1cc(/C=C/C(=O)O)cc(O)c1O	-3%
CCCCCCCCCCCCCCCC(=O)OC1CCCn2c1nc(C)c(CCN1CCC(c3noc4cc(F)ccc34)CC1)c2=O (stereo not drawn)	-4%
CC(C)=CCC[C@](C)(O)[C@H]1CC[C@]2(C)[C@@H]1[C@H](O)C[C@@H]1[C@@]3(C)CC[C@H](O)C(C)(C)[C@@H]3[C@@H](O[C@@H]3O[C@H](CO)[C@@H](O)[C@H](O)[C@H]3O[C@@H]3O[C@@H](C)[C@H](O)[C@@H](O)[C@H]3O)C[C@]12C	-31%
CNc1nc2c(ncn2[C@@H]2O[C@H](CO)[C@@H](O)[C@H]2O)c(=O)[nH]1	-10%
Nc1nc2c(ncn2[C@H]2C[C@H](O)[C@@H](CO)O2)c(=O)[nH]1	0.13% and 0.39%

Set 3 — SMILES: CC(C)CN(C)c1nc(N)c(C(=O)N=C(N)N)nc1Cl; observed: β-arrestin recruitment; action: agonist; method: PRESTO-Tango; concentration: 10 µM; baseline: untreated
target	fold over basal
CCKAR (Homo sapiens, UniProt P32238)	0.82
G-protein coupled receptor 15 (Homo sapiens, UniProt P49685)	0.76
HTR5A (Homo sapiens, UniProt P47898)	1.2
FSHR (Homo sapiens, UniProt P23945)	0.75 fold
TACR1 (Homo sapiens, UniProt P25103)	1.05 fold
Glucagon receptor (GCGR, Homo sapiens, UniProt P47871)	0.75 fold
NTSR1 (Homo sapiens, UniProt P30989)	1.03
Probable G-protein coupled receptor 162 (GPR162, Homo sapiens, UniProt Q16538)	0.87
GIPR (Homo sapiens, UniProt P48546)	0.48 fold
GNRHR (Homo sapiens, UniProt P30968)	0.92 fold
Adhesion G-protein coupled receptor F3 (ADGRF3, Homo sapiens, UniProt Q8IZF5)	1.68
Opsin-3 (OPN3, Homo sapiens, UniProt Q9H1Y3)	1.67
HCAR3 (Homo sapiens, UniProt P49019)	1.05 fold
CNR2 (Homo sapiens, UniProt P34972)	0.94

Set 4 — observed: cell-free assay; method: competition with immobilised ligand; concentration: 1 µM
SMILES: CN([C@@H]1CCc2c(CC(=O)O)c3cc(S(C)(=O)=O)ccc3n2C1)S(=O)(=O)c1ccc(F)cc1
target	remaining binding
GRK7 (Homo sapiens, UniProt Q8WTQ7)	97%
PIK3CG (Homo sapiens, UniProt P48736)	100%
Tyrosine-protein kinase ABL1, phosphorylated (ABL1, Homo sapiens, UniProt P00519, F317L)	92%
Tyrosine-protein kinase ABL1, non-phosphorylated (ABL1, Homo sapiens, UniProt P00519, Q252H)	98%
MAP4K4 (Homo sapiens, UniProt O95819)	100%
MAP2K3 (Homo sapiens, UniProt P46734)	88%
NIM1K (Homo sapiens, UniProt Q8IY84)	100%
GRK3 (Homo sapiens, UniProt P35626)	81%
MAST1 (Homo sapiens, UniProt Q9Y2H9)	93%
PAK6 (Homo sapiens, UniProt Q9NQU5)	100%
ERBB2 (Homo sapiens, UniProt P04626)	100%
Ribosomal protein S6 kinase alpha-1, C-terminal kinase domain (RPS6KA1, Homo sapiens, UniProt Q15418)	100%
HUNK (Homo sapiens, UniProt P57058)	100%
MARK3 (Homo sapiens, UniProt P27448)	100%
OXSR1 (Homo sapiens, UniProt O95747)	100%
Myosin-IIIb (MYO3B, Homo sapiens, UniProt Q8WXR4)	100%
CASK (Homo sapiens, UniProt O14936)	80%
FGFR3 (Homo sapiens, UniProt P22607, G697C)	90%
SIK3 (Homo sapiens, UniProt Q9Y2K2)	89%
PAK4 (Homo sapiens, UniProt O96013)	100%
IRAK1 (Homo sapiens, UniProt P51617)	91%
PRKD2 (Homo sapiens, UniProt Q9BZL6)	100%
CLK3 (Homo sapiens, UniProt P49761)	100%
EPHA6 (Homo sapiens, UniProt Q9UF33)	91%
MAP3K13 (Homo sapiens, UniProt O43283)	100%

Some of these lines once more (set 2):
SMILES	inhibition
COc1cc(/C=C/C(=O)O)cc(O)c1O	-3%
CCCCCCCCCCCCCCCC(=O)OC1CCCn2c1nc(C)c(CCN1CCC(c3noc4cc(F)ccc34)CC1)c2=O (stereo not drawn)	-4%
CC(C)=CCC[C@](C)(O)[C@H]1CC[C@]2(C)[C@@H]1[C@H](O)C[C@@H]1[C@@]3(C)CC[C@H](O)C(C)(C)[C@@H]3[C@@H](O[C@@H]3O[C@H](CO)[C@@H](O)[C@H](O)[C@H]3O[C@@H]3O[C@@H](C)[C@H](O)[C@@H](O)[C@H]3O)C[C@]12C	-31%
CNc1nc2c(ncn2[C@@H]2O[C@H](CO)[C@@H](O)[C@H]2O)c(=O)[nH]1	-10%
Nc1nc2c(ncn2[C@H]2C[C@H](O)[C@@H](CO)O2)c(=O)[nH]1	0.13% and 0.39%
